Experimental data pooled from the literature.
Values joined by “and” are separate records of one study, mostly repeats; a detail may differ. ± marks the error that the study gave.

COc1cc2nccc(Oc3ccc(NC(=O)C4(C(=O)Nc5ccc(F)cc5)CC4)cc3)c2cc1OC — durable clinical benefit (Kaposi sarcoma patients; dose not given): ~25%
C[C@H]1O[C@@H](O[C@H]2CC[C@@]3(C)[C@@H](CC[C@]4(C)[C@@H]3C=C[C@]35OC[C@@]6(CCC(C)(C)C[C@H]63)[C@@H](O)C[C@]54C)[C@]2(C)CO)[C@H](O)[C@@H](O[C@@H]2O[C@H](CO)[C@@H](O)[C@H](O)[C@H]2O)[C@H]1O — protein level (Western blot, item: Mtor; chronic-plus-binge ethanol-fed mice, liver; dose not given, high dose, unit not given; baseline: β-actin): 1.17 and 0.881 and 0.765
CO[C@H]1CC[C@H](N2C(=O)CNc3ncc(-c4ccc(C(C)(C)O)nc4)nc32)CC1 — pS6RP change from baseline (flow cytometry; stimulated B cells, human, blood; 45 mg single dose, 24 h, median; baseline: baseline): -32.9%
O=C1Nc2cc3[nH]nc(-c4ccncc4)c3cc2CN1Cc1ccccc1 — complete response, best response (RECIST v1.1; human, relapsed or refractory advanced solid tumours; intravenous, 1.8 mg/kg, pooled schedules): 0%
c1ccc(-c2n[nH]cc2-c2ccnc3ccccc23)nc1 — log2 fold change (kinase binding, competitor, MIB/MS competition, item: RTK1; Candida albicans cell lysate; 100 nM; baseline: DMSO): 1.08
CN(C(=O)n1cnc(-c2ccc[n+]([O-])c2)c1)C1CCCCC1 — AUC(0-tau) (item: OEA; human, plasma; 20 mg once daily, day 10): 272 ng·h/mL
O=C(Nc1c(Cl)cncc1Cl)c1ccc(OC(F)F)c(OCC2CC2)c1 — GvHD score difference (NCG mice, human PBMC GvHD; 1 mg/kg once daily, day 33; baseline: vehicle, direction not given): -2.23
CN1CCN(C(=O)c2ccc3cc(CCNc4ccnc5ccc(C#N)cc45)ccc3c2)CC1 — leukaemia growth (bioluminescence imaging; mouse, MV4-11 AML xenograft; oral, 40 mg/kg twice daily, 4 weeks): decreased
Cc1noc(C)c1-c1cc(C(O)(c2ccccn2)c2ccccn2)c2nc(C3CC3)[nH]c2c1 — maximum inhibition (item: CCR2 expression; human, peripheral blood; 6 mg, day 8, 1604 study): 50%
Cc1oncc1C(=O)Nc1ccc(C(F)(F)F)cc1 — DHO concentration (item: dihydroorotate; female CD-1 mice, pooled urine; oral, 30 mg/kg daily, 8-24 h after dose 3): 13700 ± 140 µM
Cn1nnc2c(C(N)=O)ncn2c1=O — T/C ratio (mouse subcutaneous GBM PDX sample B; subcutaneous, dose not given): 100%
O[C@H]1CCCN[C@@H]1CCCn1cnc2c(Cl)c(Cl)ccc21 — maximum reduction (ELISA, item: Pro-C3; healthy human volunteers, serum; intraduodenal, 200 mg twice daily, day 14, multiple ascending dose): 38.8%
CCN1CCN(Cc2ccc(Nc3ncc(F)c(-c4cc(F)c5nc6n(c5c4)[C@H](C)CCC6)n3)nc2)CC1 — DCR (RECIST v1.1; advanced solid tumour patients; dose not given, Phase Ia monotherapy): 70.8%
C[C@H]1C[C@H]2CSC(N)=N[C@@]2(c2nc(NC(=O)c3ccc(OC(F)F)cn3)cs2)CO1 — percent change from baseline (item: Aβ1-40; healthy adults, plasma; 160 mg single dose, 24 h post-dose; baseline: placebo): -84%
CCN(Cc1nc2c(N)nc3cc(-c4cc[nH]n4)ccc3c2[nH]1)C(C)=O — fold change (Luminex, item: IL-6; cancer patients, serum; 1200 µg monotherapy, first 24 h; baseline: baseline): 9.3
O=C1CCc2ccc(OCCCCN3CCN(c4cccc(Cl)c4Cl)CC3)cc2N1 — stopping or switching (patients CYP2D6 IM; 6 months): 42%
C=CCn1c(=O)c2cnc(Nc3ccc(N4CCN(C)CC4)cc3)nc2n1-c1ccc2c(n1)[C@@](O)(CC)CC2 — tumour volume difference (NCI-H23 xenograft, NCG mice; oral, 80 mg/kg, day 35, once daily x 35): 186 ± 10.4 mm3
N#Cc1ccc2c(c1)[C@H]1CCCN(C(=O)c3ccc4[nH]cnc4c3)[C@H]1C2 — body weight change from baseline (human, Phase II trial; oral, 240 mg once daily, day 28, adjusted mean, SE): -0.4 kg
CCCCC1(CCCC)CN(c2ccccc2)c2cc(SC)c(OCC(=O)N[C@@H](C(=O)NCC(=O)O)c3ccccc3)cc2S(=O)(=O)C1 — plasma C4 (item: 7α-hydroxy-4-cholesten-3-one; human, plasma; 20 mg once daily, day 7): 74.6 ng/mL
N#Cc1ccc2c(-c3ccncc3)c(-c3ccc(F)cc3)nn2c1 — log2 fold change (kinase binding, competitor, MIB/MS competition, item: HST7; Candida albicans cell lysate; 100 nM; baseline: DMSO): -0.0412
O=C(O)CNC(=O)Cc1ccccc1 — sarcomere length (ventricular cardiomyocytes, C57BL/6 mouse; dose not given, 0.232 s): 1.63 µm
CSCCNc1nc(SCCC(F)(F)F)nc2c1ncn2[C@@H]1O[C@H](COP(=O)(O)OP(=O)(O)C(Cl)(Cl)P(=O)(O)O)[C@@H](O)[C@H]1O — platelet aggregation AUC (ADP-induced platelet aggregation, Multiplate aggregometry; human patients, whole blood; dose not given, 30 min): 27.8 ± 16 U
COc1nnc2ccc(N3CCC(c4ccc(OCCN5CCN(C)C(=O)[C@H]5C)cc4)CC3)nn12 — time HEXIM1 above threshold (patients; 20 mg twice daily): 12.1 h
COc1cc2cc(-c3ccc(CC(=O)Nc4cc(C(C)(C)C(F)(F)F)no4)cn3)cnc2cc1OC — progressive disease as best response (RECIST v1.1; RET-altered advanced solid tumour patients; oral, 20 mg once daily, phase I): 100%
N#Cc1ccn2c(-c3ccncc3)c(-c3ccc(F)cc3)nc2c1 — log2 fold change (kinase binding, competitor, MIB/MS competition, item: SSK2; Candida albicans cell lysate; 100 nM; baseline: DMSO): -0.143
C[C@@H](O)CCOC(=O)C[C@@H](C)O — metabolite level (item: C20 acylcarnitine; human, plasma; 60 min, log2-transformed values): -7.77 ± 0.68 µmol/L
CC(C)NCC(O)c1ccc(O)c(O)c1 (centres unmarked) — sarcomere length (ventricular cardiomyocytes, C57BL/6 mouse; dose not given, 0.276 s): 1.69 µm
Cn1cc(Nc2nccc(-c3ccc4c(c3)CN(C3COC3)CC[C@H]4NC(=O)c3cn(C(C)(C)C)nn3)n2)cn1 — pathway activation z-score (item: Tryptophan Degradation III (Eukaryotic); splenic B cells, mouse; in vivo, 30 mg/kg, IgD-activated B cells; baseline: vehicle, positive = activation): 2.12
O=C(O)c1ccc(-n2cc(CNc3ccc(Cl)c(C(F)(F)F)c3)c(-c3cccc(F)c3)n2)cc1 — survival (Caenorhabditis elegans, S. aureus infected; 1 µg/mL, 5 days): ~60%
Cc1ccc(C(=O)Nc2ccnc(S(N)(=O)=O)c2)c(N2CCCC(F)(F)CC2)n1 — conduction velocity (Macaca mulatta, C-nociceptors; intravenous, 0.6 mg/kg bolus then 0.8 mg/kg/h, 120 min): 102 % baseline
CC(C)C[C@@H](NC(=O)[C@H](C)NC(=O)CNC(=O)[C@@H](NC=O)C(C)C)C(=O)N[C@@H](C)C(=O)N[C@@H](C(=O)N[C@H](C(=O)N[C@@H](C(=O)N[C@@H](Cc1c[nH]c2ccccc12)C(=O)N[C@H](CC(C)C)C(=O)N[C@@H](Cc1ccc2[nH]ccc2c1)C(=O)N[C@H](CC(C)C)C(=O)N[C@@H](Cc1c[nH]c2ccccc12)C(=O)N[C@H](CC(C)C)C(=O)N[C@@H](Cc1c[nH]c2ccccc12)C(=O)NCCO)C(C)C)C(C)C)C(C)C — EC50 (H+/Na+ transport, pyranine pH-gradient; EYPC/EYPG LUVs 19:1): 4.11 ± 0.75 nM
OC[C@H]1O[C@@H](c2ccc(F)c(Cc3cc4ccccc4s3)c2)[C@H](O)[C@@H](O)[C@@H]1O — time glucose at most 70 mg/dL (continuous glucose monitoring; Japanese type 1 diabetes patients; 100 mg/day, day 1; baseline: baseline): -1.04 ± 10.5 % change
CC[C@@H]1[C@H](F)C(=O)N[C@@H]1COc1nccc2cc(C(N)=O)c(OC)cc12 — inhibition (ATP-site probe binding, ActivX profiling, item: MAP2K1, MAP2K2; THP-1 cell lysate; 0.04 mM, Lys2 site): -4.8%
O=C1N(Cc2ccccc2Cl)c2ccccc2C12NN=C(c1ccccc1)S2 (centres unmarked) — T/C (MDA-MB-231 xenograft, mouse; intravenous, 470 mg/kg total, once daily dosing): 81%
N=C(N)NCCC[C@@H](N)C(=O)N[C@@H](CCCNC(=N)N)C(=O)N1CCC[C@H]1C(=O)N1C[C@H](O)C[C@H]1C(=O)NCC(=O)N[C@@H](Cc1cccs1)C(=O)N[C@@H](CO)C(=O)N1Cc2ccccc2C[C@@H]1C(=O)N1[C@H](C(=O)N[C@@H](CCCNC(=N)N)C(=O)O)C[C@@H]2CCCC[C@@H]21 — time to symptom relief (pediatric hereditary angioedema patients; subcutaneous, 0.4 mg/kg, up to 30 mg, median; lower = faster relief): 1 h
CS(=O)(=O)CCNCc1ccc(-c2ccc3ncnc(Nc4ccc(OCc5cccc(F)c5)c(Cl)c4)c3c2)o1 — ED50 (tumour growth; A-431 xenograft, mouse; oral, daily, 11 days): 79.6 mg/kg
COc1ccc(-c2cncc(N[C@@H](C)c3cccc(NC(=O)c4cncc(C)c4)c3)n2)cc1OC — fold change (item: rno-miR-369-3p; rat SU5416/hypoxia model, lung; dose not given; baseline: SU5416/hypoxia vehicle): 1.18
C=Cc1c(C)c2cc3nc(c(CC(=O)O)c4[nH]c(cc5nc(cc1[nH]2)C(C)=C5CC)c(C)c4C(=O)O)[C@@H](CCC(=O)O)[C@@H]3C — M2 cells (flow cytometry; mouse, 4T1 tumour-bearing; dose not given, 1 h): 10.7% and 9.88% and 10.9%
C[C@H](Oc1ccc(Br)cc1-c1ccon1)C(=O)O — difference from placebo (first response peak; human, tibialis anterior muscle; 100 mg, 30 Hz, single ascending dose): 18.2%
OC(CCN1CCCCC1)(c1ccccc1)C1CC2C=CC1C2 (centres unmarked) — EEG power, alpha, Fz-Cz (resting-state EEG; healthy elderly humans; oral, 4 mg, eyes closed, LS mean): 6.7 µV²
N#Cc1ccc(C(c2ccc(C#N)cc2)n2cncn2)cc1 — estradiol concentration (ELISA; human patients, tumour homogenate; 10 mg daily): 630 ± 142 pg/mL
NC(=O)c1cnc2[nH]ccc2c1N[C@@H]1[C@@H]2CC3C[C@H]1C[C@@](O)(C3)C2 — CD4+ memory T-cell change (flow cytometry; Japanese healthy men, blood; oral, 30 mg twice daily, 72 h after day 7 dose; baseline: baseline): -0.83%
[Cl-].[Cl-].[Pt+2].[Ru+2].c1ccc(-c2nccnc2-c2ccccn2)nc1.c1cnc2c(c1)ccc1cccnc12.c1cnc2c(c1)ccc1cccnc12 — negative activation entropy (chloride substitution, UV-vis kinetics; aqueous buffer; concentration not given, pH 7.2, first substitution step, added: guanosine 5'-monophosphate): 131 ± 9 J/(mol·K)
Cc1ccc(NC(=O)c2ccnc(C(F)(F)F)c2)cc1-c1cc(OCCO)nc(N2CCOCC2)c1 — progressive disease (MAPK-altered advanced solid tumour patients; dose not given, single-agent dose escalation): 41.4%
CC(CCc1ccc(O)cc1)NCCc1ccc(O)c(O)c1 (centres unmarked) — cardiac output change (anaesthetised instrumented rat; iv infusion, 1 µg/kg/min, 15 min, unit not given; baseline: baseline): 3.5 ± 1
[Cl-].[Cl-].[Pt+2].[Ru+2].c1ccc(-c2nc3cc4ccccc4cc3nc2-c2ccccn2)nc1.c1cnc2c(c1)ccc1cccnc12.c1cnc2c(c1)ccc1cccnc12 — negative activation entropy (chloride substitution, UV-vis kinetics; aqueous buffer; concentration not given, pH 7.2, second substitution step, added: guanosine 5'-monophosphate): 101 ± 4 J/(mol·K)
Cn1cncc1-c1c(F)cncc1NC(=O)c1c(N)nn2cc(F)cnc12 — Emax (erythroid progenitor production, inhibitor, PK/PD model; human): 59.8%
